{"data": "Measured values collected from several papers", "note": "Parts stem from different laboratories: compare values within a part only.", "UniProt P21127, sequence (whole entry, looked up)": "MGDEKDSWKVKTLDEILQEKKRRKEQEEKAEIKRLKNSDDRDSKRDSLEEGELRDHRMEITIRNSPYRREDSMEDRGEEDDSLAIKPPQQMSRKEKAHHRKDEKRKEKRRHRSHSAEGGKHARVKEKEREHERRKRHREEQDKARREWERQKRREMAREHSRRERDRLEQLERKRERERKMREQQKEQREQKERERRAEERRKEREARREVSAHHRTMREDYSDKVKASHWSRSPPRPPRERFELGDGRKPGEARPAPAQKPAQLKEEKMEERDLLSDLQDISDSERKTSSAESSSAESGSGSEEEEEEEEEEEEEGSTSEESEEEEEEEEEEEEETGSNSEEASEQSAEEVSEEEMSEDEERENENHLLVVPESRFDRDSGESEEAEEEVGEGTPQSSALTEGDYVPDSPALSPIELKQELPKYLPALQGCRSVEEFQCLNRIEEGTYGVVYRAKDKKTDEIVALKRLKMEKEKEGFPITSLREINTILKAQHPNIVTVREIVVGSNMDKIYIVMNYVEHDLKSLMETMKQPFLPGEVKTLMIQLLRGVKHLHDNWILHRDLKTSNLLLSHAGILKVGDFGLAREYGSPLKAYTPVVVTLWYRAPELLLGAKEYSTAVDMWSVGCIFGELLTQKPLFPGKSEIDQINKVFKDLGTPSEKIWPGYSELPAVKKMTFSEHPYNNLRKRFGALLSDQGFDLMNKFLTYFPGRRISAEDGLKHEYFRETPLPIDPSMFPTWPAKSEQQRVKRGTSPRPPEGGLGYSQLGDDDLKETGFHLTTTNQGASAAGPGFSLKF", "UniProt P15056, sequence (whole entry, unmodified, looked up)": "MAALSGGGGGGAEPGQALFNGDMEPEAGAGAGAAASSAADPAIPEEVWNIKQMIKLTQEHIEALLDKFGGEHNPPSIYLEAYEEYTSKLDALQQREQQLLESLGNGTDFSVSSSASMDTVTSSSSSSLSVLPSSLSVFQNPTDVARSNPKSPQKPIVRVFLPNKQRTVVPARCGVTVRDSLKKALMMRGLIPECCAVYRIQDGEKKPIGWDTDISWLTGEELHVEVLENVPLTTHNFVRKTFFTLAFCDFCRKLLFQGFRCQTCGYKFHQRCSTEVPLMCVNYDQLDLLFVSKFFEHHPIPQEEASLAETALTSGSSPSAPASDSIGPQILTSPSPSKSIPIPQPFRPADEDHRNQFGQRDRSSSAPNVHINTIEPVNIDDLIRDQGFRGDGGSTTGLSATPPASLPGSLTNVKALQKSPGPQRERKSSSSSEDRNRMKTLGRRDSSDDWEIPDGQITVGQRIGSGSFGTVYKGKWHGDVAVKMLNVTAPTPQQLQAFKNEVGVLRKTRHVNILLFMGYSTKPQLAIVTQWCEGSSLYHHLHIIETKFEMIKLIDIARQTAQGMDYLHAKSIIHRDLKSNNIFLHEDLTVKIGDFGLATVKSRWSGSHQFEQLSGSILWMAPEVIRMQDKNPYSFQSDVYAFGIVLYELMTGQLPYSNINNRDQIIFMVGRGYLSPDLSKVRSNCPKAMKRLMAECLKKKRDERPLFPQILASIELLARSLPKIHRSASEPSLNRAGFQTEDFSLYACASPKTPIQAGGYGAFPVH", "UniProt Q02763, sequence (whole entry, looked up)": "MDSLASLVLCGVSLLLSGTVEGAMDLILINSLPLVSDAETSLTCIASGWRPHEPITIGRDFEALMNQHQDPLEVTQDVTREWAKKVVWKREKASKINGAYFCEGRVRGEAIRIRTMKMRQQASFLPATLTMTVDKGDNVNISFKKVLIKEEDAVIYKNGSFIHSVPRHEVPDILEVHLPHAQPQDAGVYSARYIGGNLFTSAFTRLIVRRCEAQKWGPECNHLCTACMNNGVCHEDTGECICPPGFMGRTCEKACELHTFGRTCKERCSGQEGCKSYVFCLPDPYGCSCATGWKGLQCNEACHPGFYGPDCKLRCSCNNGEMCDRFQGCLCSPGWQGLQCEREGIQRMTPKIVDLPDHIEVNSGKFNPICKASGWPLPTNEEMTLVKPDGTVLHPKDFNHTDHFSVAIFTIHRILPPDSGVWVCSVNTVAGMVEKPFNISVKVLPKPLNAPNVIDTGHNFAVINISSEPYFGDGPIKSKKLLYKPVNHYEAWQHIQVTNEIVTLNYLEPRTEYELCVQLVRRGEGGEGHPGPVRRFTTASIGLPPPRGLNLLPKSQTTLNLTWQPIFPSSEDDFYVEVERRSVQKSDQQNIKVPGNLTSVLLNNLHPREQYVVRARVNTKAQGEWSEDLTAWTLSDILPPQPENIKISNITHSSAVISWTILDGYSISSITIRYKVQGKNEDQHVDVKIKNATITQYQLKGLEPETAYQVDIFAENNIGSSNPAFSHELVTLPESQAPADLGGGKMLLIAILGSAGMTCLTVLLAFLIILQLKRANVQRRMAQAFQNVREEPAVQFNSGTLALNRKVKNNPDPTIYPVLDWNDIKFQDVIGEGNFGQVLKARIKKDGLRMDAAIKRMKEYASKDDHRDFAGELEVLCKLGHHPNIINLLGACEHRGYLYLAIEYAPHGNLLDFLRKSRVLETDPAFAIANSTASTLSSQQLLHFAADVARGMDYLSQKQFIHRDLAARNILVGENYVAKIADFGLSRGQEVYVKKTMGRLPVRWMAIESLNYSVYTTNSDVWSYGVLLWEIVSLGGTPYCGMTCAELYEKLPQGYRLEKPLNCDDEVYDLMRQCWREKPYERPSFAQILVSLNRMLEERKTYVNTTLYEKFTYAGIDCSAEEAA", "UniProt P68400, sequence (whole entry, looked up)": "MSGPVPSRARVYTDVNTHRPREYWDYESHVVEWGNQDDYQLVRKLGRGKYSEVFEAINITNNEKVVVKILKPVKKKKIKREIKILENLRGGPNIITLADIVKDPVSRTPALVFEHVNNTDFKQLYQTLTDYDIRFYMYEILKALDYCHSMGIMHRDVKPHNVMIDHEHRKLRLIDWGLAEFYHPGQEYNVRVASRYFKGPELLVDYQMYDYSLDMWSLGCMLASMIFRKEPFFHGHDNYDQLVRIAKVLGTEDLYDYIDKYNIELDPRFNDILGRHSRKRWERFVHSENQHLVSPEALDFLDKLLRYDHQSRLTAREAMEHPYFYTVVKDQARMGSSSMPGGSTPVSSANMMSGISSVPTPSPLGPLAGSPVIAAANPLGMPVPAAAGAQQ", "UniProt Q6P2M8, sequence (whole entry, looked up)": "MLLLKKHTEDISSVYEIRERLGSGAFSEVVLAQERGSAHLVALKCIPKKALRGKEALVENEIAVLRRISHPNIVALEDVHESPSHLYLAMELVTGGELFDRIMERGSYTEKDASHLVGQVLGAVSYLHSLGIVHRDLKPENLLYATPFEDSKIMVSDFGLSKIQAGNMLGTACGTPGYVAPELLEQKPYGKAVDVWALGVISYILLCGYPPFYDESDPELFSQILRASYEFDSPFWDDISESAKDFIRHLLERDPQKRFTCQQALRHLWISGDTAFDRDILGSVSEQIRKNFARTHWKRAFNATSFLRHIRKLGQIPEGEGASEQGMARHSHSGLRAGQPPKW", "UniProt P27361, sequence (whole entry, looked up)": "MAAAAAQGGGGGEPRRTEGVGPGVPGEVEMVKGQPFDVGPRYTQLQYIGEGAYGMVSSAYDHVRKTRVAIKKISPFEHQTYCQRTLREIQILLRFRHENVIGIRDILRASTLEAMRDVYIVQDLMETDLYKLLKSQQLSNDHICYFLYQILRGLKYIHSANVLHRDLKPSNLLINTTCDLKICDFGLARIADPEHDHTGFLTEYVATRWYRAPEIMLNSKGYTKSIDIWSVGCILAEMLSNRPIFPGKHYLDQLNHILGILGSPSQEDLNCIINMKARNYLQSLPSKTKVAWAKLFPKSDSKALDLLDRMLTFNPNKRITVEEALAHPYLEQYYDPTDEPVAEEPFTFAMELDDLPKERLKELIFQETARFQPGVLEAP", "UniProt O94768, sequence (whole entry, looked up)": "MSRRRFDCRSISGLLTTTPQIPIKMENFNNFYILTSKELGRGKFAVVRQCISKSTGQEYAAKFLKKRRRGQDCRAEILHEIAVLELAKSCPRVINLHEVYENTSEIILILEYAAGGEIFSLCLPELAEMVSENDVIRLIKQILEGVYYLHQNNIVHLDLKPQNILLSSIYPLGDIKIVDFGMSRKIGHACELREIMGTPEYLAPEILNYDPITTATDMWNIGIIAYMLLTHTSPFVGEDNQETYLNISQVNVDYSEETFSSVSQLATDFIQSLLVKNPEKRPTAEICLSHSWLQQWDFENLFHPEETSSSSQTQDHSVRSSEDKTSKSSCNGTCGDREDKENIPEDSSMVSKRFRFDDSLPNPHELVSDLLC", "UniProt P07332, sequence (whole entry, looked up)": "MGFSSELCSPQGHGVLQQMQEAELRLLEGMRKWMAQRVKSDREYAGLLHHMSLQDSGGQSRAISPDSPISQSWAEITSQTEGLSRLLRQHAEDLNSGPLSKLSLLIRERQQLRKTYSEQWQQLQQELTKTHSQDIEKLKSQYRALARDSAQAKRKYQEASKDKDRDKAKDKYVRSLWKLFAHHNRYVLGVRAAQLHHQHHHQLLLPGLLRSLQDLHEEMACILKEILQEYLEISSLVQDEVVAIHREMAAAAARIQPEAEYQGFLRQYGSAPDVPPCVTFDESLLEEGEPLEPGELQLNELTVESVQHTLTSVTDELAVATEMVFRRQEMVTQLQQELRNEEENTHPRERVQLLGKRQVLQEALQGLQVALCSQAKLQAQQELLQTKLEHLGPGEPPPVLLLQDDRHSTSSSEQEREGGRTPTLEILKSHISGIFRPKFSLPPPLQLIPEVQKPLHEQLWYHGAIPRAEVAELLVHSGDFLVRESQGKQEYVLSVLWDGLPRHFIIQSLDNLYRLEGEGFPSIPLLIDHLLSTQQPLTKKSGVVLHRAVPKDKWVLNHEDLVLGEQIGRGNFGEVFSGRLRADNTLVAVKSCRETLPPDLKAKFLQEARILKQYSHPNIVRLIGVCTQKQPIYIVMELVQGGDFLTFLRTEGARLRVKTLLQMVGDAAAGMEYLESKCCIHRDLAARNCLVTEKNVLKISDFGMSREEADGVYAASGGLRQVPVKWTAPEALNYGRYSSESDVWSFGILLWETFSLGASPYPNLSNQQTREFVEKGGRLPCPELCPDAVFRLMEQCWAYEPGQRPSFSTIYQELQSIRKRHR"}
{"data": "Study 1", "target": "Hepatocyte nuclear factor 3-alpha (Foxa1, Mus musculus, UniProt P35582, residues 1-468, full length assumed)", "method": "EMSA with sequencing", "form": "double-stranded DNA, one strand shown", "matrix": "in vitro", "tested at": "10 and 20 nM", "notes": "whole designed probe, mean of two concentrations, ends assumed", "relative to": "negative control set to 0", "direction": "higher = stronger binding", "shared flanks, not repeated": "GTGAGCGGTGCCCATTGATGGGGAAC … TTTCACTGGGATCGTGGGGAC", "Residues (chain)": "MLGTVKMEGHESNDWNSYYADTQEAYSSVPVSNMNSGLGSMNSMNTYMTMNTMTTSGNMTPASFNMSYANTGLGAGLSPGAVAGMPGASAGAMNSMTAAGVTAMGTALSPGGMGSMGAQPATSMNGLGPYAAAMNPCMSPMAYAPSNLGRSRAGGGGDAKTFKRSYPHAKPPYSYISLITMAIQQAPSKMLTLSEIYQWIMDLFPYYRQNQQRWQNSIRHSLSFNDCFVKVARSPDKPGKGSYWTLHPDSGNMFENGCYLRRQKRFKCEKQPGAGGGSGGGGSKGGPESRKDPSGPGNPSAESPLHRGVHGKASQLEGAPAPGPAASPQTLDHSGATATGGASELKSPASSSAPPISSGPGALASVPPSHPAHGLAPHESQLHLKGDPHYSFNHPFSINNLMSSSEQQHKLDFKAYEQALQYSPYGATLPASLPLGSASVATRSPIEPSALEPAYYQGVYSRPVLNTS"}
{"Oligonucleotide": "CTTTTAAATATTTCAAAAACTATAACTTATAGGATTGCCAATAAGTAGAAAACTTAGATACTACCTTTTCCCATCCTTTATTTTATTTCAGTGTAATCTTGGCTTTTATTTAACTATTTATATTTTCTTTAATAAAATTTTTAAGAAATTGTACAGGTTTCATAACATTTTATTGTCATCCTGTGCTTAGATT", "normalised bound fraction": "0.0734 ratio"}
{"Oligonucleotide": "AAGATATGATTATTATACGTGTGTCTGTTTTTATATAGAATTTGTTAGAAGTCTCTAGTACACCATACCAGAAAAAGTTTAGCTAAAACAAAGTAATCTTGAAATATTGCAAAGAAAACCAATAGAAACTTAACAGAATAAATAATATTTATTTTCCAGAATAAAGACACAATATAAGTGAAGCTTCAAATTT", "normalised bound fraction": "0.29 ratio"}
{"Oligonucleotide": "TTTCAAATAAAACAATGTCTTTAAAGAGGACTAAGATTGCAAATGAATGCTTTTAAAGAAATGCAGGAGGATAAATTAGCAAGCAGGAAACAATGTAATCTAATATTTGTGTCCAATTATTGAAAGTGTTTCAATAAGCATGGATAAAGTGGCCTTTAAGCAATCATGATACAGCTAAAAAAGACAATTTTAG", "normalised bound fraction": "0.0449 ratio"}
{"Oligonucleotide": "CTCATTCCTTGCTTCCGCCAATAATCTGACTAGTAAAGAAGTCACTGCATGCCACAAATTGTCAGTGCTGACTTCCTCAACAAGGAAGTATAAGTAAATAAATATTAATATATATGCAAATTCCGAGTGACTCAGATCTTGAGAATACCAACTCCTGATGCCAACTGATTGTCAGTCATGGCTACAACAGGAG", "normalised bound fraction": "0.4 ratio"}
{"Oligonucleotide": "ATAATCATTAACTATGGGCTTTTTAAAAAGAATTTTTTCTTTACTTTGCTATTCTTTTCTTTTCTTTCTCATTCTTTTCTTTCCATTTTCAAAGTCATTTAAAGGACCAAGAGAAAATTTCCCATGAAAAATACATGTTTTTATTCTTTAGTTCAATTCTGCTCCTAAAATGTATAAAAGCCAATAGGATTCA", "normalised bound fraction": "0.0409 ratio"}
{"data": "Study 2", "target": "Fragile X messenger ribonucleoprotein 1, C-terminal low-complexity region (Fmr1, Mus musculus, UniProt P35922)", "method": "RNA Bind-n-Seq", "form": "RNA", "matrix": "in vitro", "tested at": "200 nM", "notes": "whole 134-nt RNA, ends assumed", "added": "150 mM LiCl", "relative to": "input library", "direction": "higher = stronger binding", "library": "7-deaza-guanosine replaces G", "shared flanks, not repeated": "GGGAGUUCUACAGUCCGACGAUC … UGGAAUUCUCGGGUGUCAAGG"}
{"Oligonucleotide": "UCAAGUCCUGUGCUACACAUCGUAUGUACCGAAUCGGUUUGGUUUGGGGUUUGGAAAGUAUUAUGUUACGCCGUUCGGAUCUGCACUUCC", "log2 enrichment": -1.66}
{"Oligonucleotide": "UGGCCGGUGGCCGUGAGAACACGCUGUGUGGCUGAAAAGUGAAGGCAAGAGCUGAUUUGGCCUCUGUGCUCCCCUCCGCAAGGGGAUCGU", "log2 enrichment": -0.224}
{"Oligonucleotide": "CUCAAGUCCUGUGCUACACAUCGUAUGUACCGAAUCGGUUUUUGGAGGUUUGGAAAGUAUUAUGUUACGCCGUUCGGAUCUGCACUUCCA", "log2 enrichment": -0.6}
{"Oligonucleotide": "GCAGGAAGUAAAAACAAAUGGAAAUGCUUCGGAUAGUGGCAGGGGUGGGGGUUGAUAAGGAAAGGGUGGGAUGGGAGUGGGUAAAGAGUU", "log2 enrichment": 1.37}
{"Oligonucleotide": "CCUGUGCUACACAUCGUAUGUACCGAAUCGGGAAAAAAAGGGUUUUUUUGGGAAAAAGGGAAAGUAUUAUGUUACGCCGUUCGGAUCUGC", "log2 enrichment": -2.36}
{"Oligonucleotide": "UCCUGUGCUACACAUCGUAUGUACCGAAUCGGGGUUUUUGGGGUUUUUGGGUUUUUGGGGAAAGUAUUAUGUUACGCCGUUCGGAUCUGC", "log2 enrichment": -0.944}
{"Oligonucleotide": "CCUCAAGUCCUGUGCUACACAUCGUAUGUACCGAAUCGGUUGGUUGGUUGGGAAAGUAUUAUGUUACGCCGUUCGGAUCUGCACUUCCAG", "log2 enrichment": 0.342}
{"Oligonucleotide": "UAACUUUAGAGGAGGAUCUGAUGGAUAUGGCAGUGGACGUGGAUUUGGGGAUGGCUAUAAUGGGUAUGGAGGAGGACCUGGAGCUGGCAA", "log2 enrichment": 0.118}
{"data": "Study 3", "Compound": "CN(C)CC#Cc1ccc(OCCCc2sc(N3CCc4cccc(C(=O)Nc5nc6ccccc6s5)c4C3)nc2C(=O)O)c(F)c1", "effect on": "cell-free assay", "method": "competition with immobilised ligand", "tested at": "1 µM"}
{"target": "Serine/threonine-protein kinase B-raf (BRAF, Homo sapiens, UniProt P15056, V600E)", "remaining binding [%]": 79}
{"target": "Angiopoietin-1 receptor (TEK, Homo sapiens, UniProt Q02763)", "remaining binding [%]": 100}
{"target": "Casein kinase II subunit alpha (CSNK2A1, Homo sapiens, UniProt P68400)", "remaining binding [%]": 100}
{"target": "Receptor-type tyrosine-protein kinase FLT3 (FLT3, Homo sapiens, UniProt P36888, R834Q)", "remaining binding [%]": 100}
{"target": "Casein kinase I isoform gamma-1 (CSNK1G1, Homo sapiens, UniProt Q9HCP0)", "remaining binding [%]": 91}
{"target": "Cyclin-dependent kinase 11B (CDK11B, Homo sapiens, UniProt P21127)", "remaining binding [%]": 93}
{"target": "Calcium/calmodulin-dependent protein kinase type 1B (PNCK, Homo sapiens, UniProt Q6P2M8)", "remaining binding [%]": 100}
{"target": "Mitogen-activated protein kinase 3 (MAPK3, Homo sapiens, UniProt P27361)", "remaining binding [%]": 96}
{"target": "Ephrin type-B receptor 6 (EPHB6, Homo sapiens, UniProt O15197)", "remaining binding [%]": 100}
{"target": "Serine/threonine-protein kinase 17B (STK17B, Homo sapiens, UniProt O94768)", "remaining binding [%]": 72}
{"target": "Serine/threonine-protein kinase PRP4 homolog (PRPF4B, Homo sapiens, UniProt Q13523)", "remaining binding [%]": 100}
{"target": "Tyrosine-protein kinase Fes/Fps (FES, Homo sapiens, UniProt P07332)", "remaining binding [%]": 100}
{"target": "Tyrosine-protein kinase SYK (SYK, Homo sapiens, UniProt P43405)", "remaining binding [%]": 100}
{"data": "Other studies, line by line"}
{"SMILES": "O=C(C1CCCCC1)N1CC(=O)N2CCc3ccccc3C2C1 (stereo not shown)", "target or system": "A-375", "conditions": "100 µM, 18 h", "measurement": "viability", "value": "95.4%"}
{"SMILES": "[O-][S+](CCc1ccccc1)Cc1c(Cl)cccc1Cl (stereo not shown)", "test system": "mouse, microsomes or S9", "conditions": "2 µM, 0.5 h", "measurement": "remaining compound", "value": "0.615%"}
{"note": "Excerpt of the above (study 2):"}
{"Oligonucleotide": "UCCUGUGCUACACAUCGUAUGUACCGAAUCGGGGUUUUUGGGGUUUUUGGGUUUUUGGGGAAAGUAUUAUGUUACGCCGUUCGGAUCUGC", "log2 enrichment": -0.944}
{"Oligonucleotide": "CCUCAAGUCCUGUGCUACACAUCGUAUGUACCGAAUCGGUUGGUUGGUUGGGAAAGUAUUAUGUUACGCCGUUCGGAUCUGCACUUCCAG", "log2 enrichment": 0.342}
{"Oligonucleotide": "UAACUUUAGAGGAGGAUCUGAUGGAUAUGGCAGUGGACGUGGAUUUGGGGAUGGCUAUAAUGGGUAUGGAGGAGGACCUGGAGCUGGCAA", "log2 enrichment": 0.118}
